# Assay results of several laboratories.
# A part holds a random share of what one study measured.
# Sequence of UniProt P46734 (whole entry, looked up): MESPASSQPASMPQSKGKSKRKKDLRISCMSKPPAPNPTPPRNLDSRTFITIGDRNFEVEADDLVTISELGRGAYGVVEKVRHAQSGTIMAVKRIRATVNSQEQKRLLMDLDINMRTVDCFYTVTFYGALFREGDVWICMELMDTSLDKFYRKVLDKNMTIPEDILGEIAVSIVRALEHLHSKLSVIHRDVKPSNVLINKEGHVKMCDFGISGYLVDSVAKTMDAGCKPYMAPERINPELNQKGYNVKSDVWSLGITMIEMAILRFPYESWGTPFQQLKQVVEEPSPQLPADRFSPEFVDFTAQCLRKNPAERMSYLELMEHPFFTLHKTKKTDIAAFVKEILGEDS
# Sequence of UniProt P53667 (whole entry, looked up): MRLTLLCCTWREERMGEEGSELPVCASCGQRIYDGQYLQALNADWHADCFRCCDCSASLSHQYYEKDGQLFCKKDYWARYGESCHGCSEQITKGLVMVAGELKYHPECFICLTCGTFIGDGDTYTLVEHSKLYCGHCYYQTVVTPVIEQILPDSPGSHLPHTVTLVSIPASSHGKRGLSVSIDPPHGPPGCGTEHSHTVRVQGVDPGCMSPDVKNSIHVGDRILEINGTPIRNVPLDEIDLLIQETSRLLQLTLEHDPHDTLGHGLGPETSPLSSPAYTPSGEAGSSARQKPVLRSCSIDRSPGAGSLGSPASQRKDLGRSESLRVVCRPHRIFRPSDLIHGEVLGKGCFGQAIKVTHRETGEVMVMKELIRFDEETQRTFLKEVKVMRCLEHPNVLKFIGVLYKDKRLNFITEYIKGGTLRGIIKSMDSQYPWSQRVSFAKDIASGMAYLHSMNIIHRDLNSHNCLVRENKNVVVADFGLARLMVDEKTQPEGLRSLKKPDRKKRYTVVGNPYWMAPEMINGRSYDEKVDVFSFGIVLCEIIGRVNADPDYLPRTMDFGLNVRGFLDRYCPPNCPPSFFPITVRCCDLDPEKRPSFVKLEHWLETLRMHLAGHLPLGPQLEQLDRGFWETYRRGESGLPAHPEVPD
# Sequence of UniProt Q08881 (whole entry, looked up): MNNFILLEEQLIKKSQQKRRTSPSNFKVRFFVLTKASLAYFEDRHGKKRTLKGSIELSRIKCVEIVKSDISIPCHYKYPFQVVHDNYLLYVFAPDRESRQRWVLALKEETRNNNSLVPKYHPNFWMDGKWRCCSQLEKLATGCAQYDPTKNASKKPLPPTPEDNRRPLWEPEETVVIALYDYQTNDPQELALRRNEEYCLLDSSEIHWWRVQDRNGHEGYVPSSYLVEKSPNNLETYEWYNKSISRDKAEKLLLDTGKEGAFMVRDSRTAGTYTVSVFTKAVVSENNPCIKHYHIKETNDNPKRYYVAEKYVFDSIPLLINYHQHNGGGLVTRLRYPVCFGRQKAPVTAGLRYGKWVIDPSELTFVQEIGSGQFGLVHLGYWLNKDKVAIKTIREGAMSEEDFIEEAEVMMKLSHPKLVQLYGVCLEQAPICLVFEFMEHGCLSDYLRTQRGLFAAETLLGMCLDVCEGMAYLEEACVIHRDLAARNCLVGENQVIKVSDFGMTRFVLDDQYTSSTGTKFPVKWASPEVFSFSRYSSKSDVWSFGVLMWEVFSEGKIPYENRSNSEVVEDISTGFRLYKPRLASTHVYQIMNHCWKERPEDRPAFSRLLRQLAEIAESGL
# Sequence of UniProt Q86Z02 (whole entry, looked up): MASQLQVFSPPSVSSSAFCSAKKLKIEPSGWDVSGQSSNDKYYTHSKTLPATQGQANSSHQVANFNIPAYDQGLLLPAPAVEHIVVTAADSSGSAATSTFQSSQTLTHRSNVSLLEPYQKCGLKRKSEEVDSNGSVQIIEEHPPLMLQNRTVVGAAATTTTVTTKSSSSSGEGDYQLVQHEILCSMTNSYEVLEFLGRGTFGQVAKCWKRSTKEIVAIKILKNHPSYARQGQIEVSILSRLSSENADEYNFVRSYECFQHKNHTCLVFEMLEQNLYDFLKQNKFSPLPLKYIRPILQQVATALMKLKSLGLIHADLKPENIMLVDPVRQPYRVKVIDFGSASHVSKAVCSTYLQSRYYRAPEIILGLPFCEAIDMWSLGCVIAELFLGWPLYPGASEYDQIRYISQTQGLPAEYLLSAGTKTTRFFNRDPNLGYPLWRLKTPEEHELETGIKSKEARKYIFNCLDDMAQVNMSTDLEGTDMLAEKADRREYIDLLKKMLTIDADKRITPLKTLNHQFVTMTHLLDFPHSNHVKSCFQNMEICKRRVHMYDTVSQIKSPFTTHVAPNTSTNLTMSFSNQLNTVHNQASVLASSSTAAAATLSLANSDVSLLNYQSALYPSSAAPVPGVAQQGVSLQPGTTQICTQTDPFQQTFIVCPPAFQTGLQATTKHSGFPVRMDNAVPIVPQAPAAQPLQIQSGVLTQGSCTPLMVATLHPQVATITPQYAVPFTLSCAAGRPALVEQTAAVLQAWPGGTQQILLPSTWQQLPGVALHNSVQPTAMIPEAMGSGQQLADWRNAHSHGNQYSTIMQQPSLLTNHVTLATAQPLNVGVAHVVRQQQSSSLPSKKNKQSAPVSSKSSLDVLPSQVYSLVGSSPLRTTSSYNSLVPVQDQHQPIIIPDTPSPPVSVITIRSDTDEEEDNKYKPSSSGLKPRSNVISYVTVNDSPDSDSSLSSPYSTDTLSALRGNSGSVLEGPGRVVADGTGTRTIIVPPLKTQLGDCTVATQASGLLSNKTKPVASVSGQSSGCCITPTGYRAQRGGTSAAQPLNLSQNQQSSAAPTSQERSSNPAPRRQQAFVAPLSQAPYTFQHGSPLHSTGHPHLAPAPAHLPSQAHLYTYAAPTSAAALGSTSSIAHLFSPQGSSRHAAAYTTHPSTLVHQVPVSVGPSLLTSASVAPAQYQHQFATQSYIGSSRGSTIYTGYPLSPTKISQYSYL
# Sequence of UniProt P06213 (whole entry, looked up): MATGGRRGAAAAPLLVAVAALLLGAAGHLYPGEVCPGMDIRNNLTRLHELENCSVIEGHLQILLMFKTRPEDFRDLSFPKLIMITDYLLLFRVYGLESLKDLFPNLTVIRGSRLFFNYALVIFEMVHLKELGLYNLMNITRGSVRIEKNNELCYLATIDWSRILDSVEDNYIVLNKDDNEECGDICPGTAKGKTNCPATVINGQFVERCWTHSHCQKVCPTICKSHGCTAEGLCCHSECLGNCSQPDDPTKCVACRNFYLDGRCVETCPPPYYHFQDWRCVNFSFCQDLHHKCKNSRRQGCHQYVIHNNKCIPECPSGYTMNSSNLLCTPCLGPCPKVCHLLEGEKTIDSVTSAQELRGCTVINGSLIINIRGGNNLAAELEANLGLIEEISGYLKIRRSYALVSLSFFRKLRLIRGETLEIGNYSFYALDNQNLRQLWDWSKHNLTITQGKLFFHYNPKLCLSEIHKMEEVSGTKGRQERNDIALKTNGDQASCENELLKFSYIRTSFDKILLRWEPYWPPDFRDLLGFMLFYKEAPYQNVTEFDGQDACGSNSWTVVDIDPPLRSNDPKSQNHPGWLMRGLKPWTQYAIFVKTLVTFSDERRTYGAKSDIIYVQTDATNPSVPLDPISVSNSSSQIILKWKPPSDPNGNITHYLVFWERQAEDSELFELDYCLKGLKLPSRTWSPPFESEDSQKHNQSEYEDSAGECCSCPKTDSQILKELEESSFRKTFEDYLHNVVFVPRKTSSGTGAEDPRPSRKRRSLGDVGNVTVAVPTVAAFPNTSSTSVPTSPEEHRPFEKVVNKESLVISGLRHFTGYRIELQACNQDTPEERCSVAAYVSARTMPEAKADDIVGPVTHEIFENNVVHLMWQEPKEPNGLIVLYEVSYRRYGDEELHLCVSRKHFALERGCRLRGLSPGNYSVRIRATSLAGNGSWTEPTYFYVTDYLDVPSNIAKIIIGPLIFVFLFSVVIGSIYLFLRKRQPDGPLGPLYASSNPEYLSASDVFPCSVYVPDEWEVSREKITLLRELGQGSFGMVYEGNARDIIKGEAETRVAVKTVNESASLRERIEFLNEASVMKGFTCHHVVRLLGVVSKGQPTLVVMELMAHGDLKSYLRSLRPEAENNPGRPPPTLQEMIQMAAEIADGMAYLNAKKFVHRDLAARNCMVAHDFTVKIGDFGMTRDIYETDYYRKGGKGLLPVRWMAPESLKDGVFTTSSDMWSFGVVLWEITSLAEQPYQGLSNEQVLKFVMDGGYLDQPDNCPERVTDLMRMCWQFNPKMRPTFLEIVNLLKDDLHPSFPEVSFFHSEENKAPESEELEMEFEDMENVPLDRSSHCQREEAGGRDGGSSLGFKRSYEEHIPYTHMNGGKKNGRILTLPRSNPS
# Sequence of UniProt Q00526 (whole entry, looked up): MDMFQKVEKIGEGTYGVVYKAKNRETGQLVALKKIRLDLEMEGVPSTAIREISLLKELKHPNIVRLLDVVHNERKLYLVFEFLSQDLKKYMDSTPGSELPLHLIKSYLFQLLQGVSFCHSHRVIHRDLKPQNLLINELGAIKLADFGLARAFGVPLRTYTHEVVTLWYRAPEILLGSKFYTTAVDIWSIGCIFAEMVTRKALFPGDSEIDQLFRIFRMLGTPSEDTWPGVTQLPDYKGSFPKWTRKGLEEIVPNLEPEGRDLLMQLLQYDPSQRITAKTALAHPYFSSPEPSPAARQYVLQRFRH

# Block 1 — observed: binding; method: competition with immobilised ligand; concentration: 1 µM
# Compound: Cc1cc(Nc2nccc(C)n2)cc(-c2cnc([C@@]3(O)CC[C@H](C(=O)O)C(C)(C)C3)s2)c1
target,remaining binding [%]
"Phosphatidylinositol 4,5-bisphosphate 3-kinase catalytic subunit alpha isoform (PIK3CA, Homo sapiens, UniProt P42336)",14.7
"Dual specificity mitogen-activated protein kinase kinase 3 (MAP2K3, Homo sapiens, UniProt P46734)",29.5
"Dual specificity mitogen-activated protein kinase kinase 5 (MAP2K5, Homo sapiens, UniProt Q13163)",25.2

# Block 2 — observed: acetyl-histone H4 peptide binding; method: AlphaScreen displacement; concentration: 50 µM
# Target: Bromodomain-containing protein 4, BD1 (BRD4, Homo sapiens, UniProt O60885)
Structure (SMILES),inhibition
O=C(O)CCC(=O)Nc1ccccc1-c1nc2ccccc2[nH]c1=O,13.4%
CC1CCCCN1CCNc1ccc2nnc(-c3ccc(F)cc3)n2n1 (stereo not shown),8.75%
CC(=O)Nc1ccc(Nc2nc(-c3sc(N)nc3C)cs2)cc1,67%
N#CC(=Cc1ccncc1)c1nc2ccccc2s1,2.25%
O=C(Nc1ccc(O)c(-c2nc3ccccc3s2)c1)c1ccco1,8.35%
COc1ccc(-c2nnc3ccc(SCC(=O)N4CCC(C)CC4)nn23)cc1OC,6.8%
N#CC(=Cc1ccc(O)c(O)c1)C(=O)Nc1ccccc1,39.2%
O=C1NCCCc2c1oc1ccc(O)cc21,12.1%
Cc1c(C(=O)N2CCCCC2)sc2nc[nH]c(=O)c12,3.8%
CN(C)c1ccc(/C=C2\C(=O)Nc3ccccc32)cc1,81%
O=C(Nc1ccc2[nH]ncc2c1)c1c(F)c(F)c(F)c(F)c1F,-1.6%
CCc1sc2nc[nH]c(=O)c2c1-c1ccccc1,11.3%
COc1cc(C=C2SC(=O)NC2=O)cc(OC)c1O,-1.65%
N#CC(=Cc1ccc(O)c(O)c1)C(=O)NCc1ccccc1,29.9%
COc1ccc(Nc2nccc(-c3ccc(C#N)cc3)n2)cc1,21.4%
Nc1nc(Nc2ccccc2)sc1C(=O)c1ccc(Cl)s1,67.8%

# Block 3 — method: KINOMEscan; concentration: 10 µM; reading: lower = stronger binding
# Structure (SMILES): COc1cc(C(=O)N2CCC(N3CCN(C)CC3)CC2)ccc1Nc1ncc2c(n1)N(C)c1ccccc1C(=O)N2C
target,binding (% of control) [%]
IKK-alpha,100
TRKA,69
BIKE,100
SIK,77
MINK,77
ABL1(H396P)-phosphorylated,100
ABL1-nonphosphorylated,100
CDK4-cyclinD3,100
ERK1,100
ABL1(Q252H)-phosphorylated,100
ABL1(Q252H)-nonphosphorylated,100
ICK,90
MRCKB,100
BRK,58

# Block 4 — observed: enzyme activity; mode: inhibitor; concentration: 0.5 µM; baseline: control
# Compound: NC(=O)c1ccc(N(C(N)=O)c2c(F)cccc2F)nc1-c1ccc(F)cc1F
target,remaining activity [%]
"Vascular endothelial growth factor receptor 3 (FLT4, Homo sapiens, UniProt P35916)",97.5
"Serine/threonine-protein kinase NLK (NLK, Homo sapiens, UniProt Q9UBE8)",15.8
"Homeodomain-interacting protein kinase 1 (HIPK1, Homo sapiens, UniProt Q86Z02)",100
"MAP/microtubule affinity-regulating kinase 3 (MARK3, Homo sapiens, UniProt P27448)",98.1
"Tyrosine-protein kinase Fgr (FGR, Homo sapiens, UniProt P09769)",94.7
"Megakaryocyte-associated tyrosine-protein kinase (MATK, Homo sapiens, UniProt P42679)",77.6
"Serine/threonine-protein kinase 25 (STK25, Homo sapiens, UniProt O00506)",97.1
"cAMP-dependent protein kinase catalytic subunit PRKX (PRKX, Homo sapiens, UniProt P51817)",123
"Serine/threonine-protein kinase N1 (PKN1, Homo sapiens, UniProt Q16512)",101
"RAC-alpha serine/threonine-protein kinase (AKT1, Homo sapiens, UniProt P31749)",84.7
"Tyrosine-protein kinase Fyn (FYN, Homo sapiens, UniProt P06241)",110
"Insulin receptor (INSR, Homo sapiens, UniProt P06213)",104
"Tyrosine-protein kinase ITK/TSK (ITK, Homo sapiens, UniProt Q08881)",105
"PAS domain-containing serine/threonine-protein kinase (PASK, Homo sapiens, UniProt Q96RG2)",103
"Serine/threonine-protein kinase MRCK alpha (CDC42BPA, Homo sapiens, UniProt Q5VT25)",93.8
"Tyrosine-protein kinase Fer (FER, Homo sapiens, UniProt P16591)",95.6
"Serine/threonine-protein kinase Nek11 (NEK11, Homo sapiens, UniProt Q8NG66)",92.9
"ALK tyrosine kinase receptor (ALK, Homo sapiens, UniProt Q9UM73)",99.6
"Serine/threonine-protein kinase TAO3 (TAOK3, Homo sapiens, UniProt Q9H2K8)",95.7
"Cyclin-dependent kinase 3, with cyclin E (CDK3, Homo sapiens, UniProt Q00526)",94.7
"Proto-oncogene tyrosine-protein kinase Src (SRC, Homo sapiens, UniProt P12931)",109
"LIM domain kinase 1 (LIMK1, Homo sapiens, UniProt P53667)",98.5
